Results gathered from unrelated publications.
Lines come from different studies, so protocols differ. “And” joins repeats or separate records; there may be more than shown. ± marks the error that the study gave.
Sequence of UniProt Q16538 (whole entry, looked up): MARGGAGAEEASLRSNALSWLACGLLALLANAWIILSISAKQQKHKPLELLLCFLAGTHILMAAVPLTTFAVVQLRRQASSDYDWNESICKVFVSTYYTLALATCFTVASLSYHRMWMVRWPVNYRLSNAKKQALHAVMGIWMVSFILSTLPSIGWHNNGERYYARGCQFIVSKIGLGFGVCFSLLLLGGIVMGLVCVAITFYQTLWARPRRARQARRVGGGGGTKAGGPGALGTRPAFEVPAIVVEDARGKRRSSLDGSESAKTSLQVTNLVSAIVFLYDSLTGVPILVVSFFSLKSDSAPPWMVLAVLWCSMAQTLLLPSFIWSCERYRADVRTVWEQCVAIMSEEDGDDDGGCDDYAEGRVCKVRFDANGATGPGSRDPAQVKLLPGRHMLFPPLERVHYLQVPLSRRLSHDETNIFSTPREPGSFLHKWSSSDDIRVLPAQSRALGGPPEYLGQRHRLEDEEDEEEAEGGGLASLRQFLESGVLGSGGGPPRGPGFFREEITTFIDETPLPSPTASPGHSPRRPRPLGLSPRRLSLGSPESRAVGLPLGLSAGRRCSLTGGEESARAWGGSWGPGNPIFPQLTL
Sequence of UniProt Q14160 (whole entry, looked up): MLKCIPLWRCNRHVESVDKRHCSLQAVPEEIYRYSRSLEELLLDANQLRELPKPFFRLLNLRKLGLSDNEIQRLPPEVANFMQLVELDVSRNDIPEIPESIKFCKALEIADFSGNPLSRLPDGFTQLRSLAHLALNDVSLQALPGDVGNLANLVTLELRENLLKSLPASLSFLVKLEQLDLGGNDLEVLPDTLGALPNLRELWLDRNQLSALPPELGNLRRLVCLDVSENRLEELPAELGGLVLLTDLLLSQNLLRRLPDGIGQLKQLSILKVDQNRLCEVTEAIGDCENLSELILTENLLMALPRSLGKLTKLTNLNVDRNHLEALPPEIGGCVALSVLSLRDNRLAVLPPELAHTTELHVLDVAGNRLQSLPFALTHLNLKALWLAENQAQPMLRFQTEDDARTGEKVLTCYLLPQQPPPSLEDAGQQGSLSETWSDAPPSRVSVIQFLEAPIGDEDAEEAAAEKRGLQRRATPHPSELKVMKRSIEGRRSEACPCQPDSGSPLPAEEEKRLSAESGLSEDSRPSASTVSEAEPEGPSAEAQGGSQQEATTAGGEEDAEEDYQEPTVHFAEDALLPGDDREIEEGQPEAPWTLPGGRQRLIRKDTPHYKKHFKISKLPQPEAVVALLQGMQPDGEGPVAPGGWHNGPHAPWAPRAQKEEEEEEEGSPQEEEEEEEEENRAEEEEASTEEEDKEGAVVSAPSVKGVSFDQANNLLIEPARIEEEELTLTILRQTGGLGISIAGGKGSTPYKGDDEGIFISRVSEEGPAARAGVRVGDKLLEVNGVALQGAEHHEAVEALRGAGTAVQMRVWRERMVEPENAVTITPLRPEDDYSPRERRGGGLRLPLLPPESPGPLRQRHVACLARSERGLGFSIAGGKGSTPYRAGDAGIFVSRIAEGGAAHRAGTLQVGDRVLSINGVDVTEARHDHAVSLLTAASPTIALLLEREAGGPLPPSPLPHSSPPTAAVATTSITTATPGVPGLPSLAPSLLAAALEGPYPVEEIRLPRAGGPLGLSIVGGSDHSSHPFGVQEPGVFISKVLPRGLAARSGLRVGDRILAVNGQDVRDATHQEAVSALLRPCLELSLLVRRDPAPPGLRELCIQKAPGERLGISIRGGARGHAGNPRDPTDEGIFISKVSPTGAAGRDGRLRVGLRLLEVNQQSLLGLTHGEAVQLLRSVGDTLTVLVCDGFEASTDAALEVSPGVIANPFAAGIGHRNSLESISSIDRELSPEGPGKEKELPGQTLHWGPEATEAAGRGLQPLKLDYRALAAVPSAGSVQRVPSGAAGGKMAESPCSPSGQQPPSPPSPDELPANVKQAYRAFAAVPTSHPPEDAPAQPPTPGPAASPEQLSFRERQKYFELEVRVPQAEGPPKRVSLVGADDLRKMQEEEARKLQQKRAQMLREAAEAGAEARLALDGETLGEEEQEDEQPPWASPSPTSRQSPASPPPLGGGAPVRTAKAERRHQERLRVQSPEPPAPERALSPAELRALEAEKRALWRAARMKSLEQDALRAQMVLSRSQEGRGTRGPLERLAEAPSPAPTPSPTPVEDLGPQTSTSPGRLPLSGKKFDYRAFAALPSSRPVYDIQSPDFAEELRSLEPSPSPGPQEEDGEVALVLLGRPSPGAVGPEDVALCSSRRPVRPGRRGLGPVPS
Sequence of UniProt O14757 (whole entry, looked up): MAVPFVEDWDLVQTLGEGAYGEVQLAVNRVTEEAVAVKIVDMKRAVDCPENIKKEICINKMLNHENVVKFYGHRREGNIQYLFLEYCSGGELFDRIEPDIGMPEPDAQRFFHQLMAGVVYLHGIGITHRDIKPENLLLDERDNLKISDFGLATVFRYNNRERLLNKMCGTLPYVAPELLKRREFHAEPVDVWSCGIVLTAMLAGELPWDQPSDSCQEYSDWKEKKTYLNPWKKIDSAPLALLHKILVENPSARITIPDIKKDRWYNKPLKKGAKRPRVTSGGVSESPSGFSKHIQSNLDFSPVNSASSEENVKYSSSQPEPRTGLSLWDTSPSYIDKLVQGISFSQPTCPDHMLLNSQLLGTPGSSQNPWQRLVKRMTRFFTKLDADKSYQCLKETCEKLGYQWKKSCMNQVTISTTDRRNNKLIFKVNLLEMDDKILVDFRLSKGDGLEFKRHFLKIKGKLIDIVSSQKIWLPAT

Cc1cn(-c2cc(NC(=O)c3ccc(C)c(Nc4nccc(-c5cccnc5)n4)c3)cc(C(F)(F)F)c2)cn1
NPI score (Homo sapiens; 150 mg, 6 months; direction not given): 6.4 ± 6.8

C=CC(=O)Nc1cc(Nc2ncc(Cl)c(Nc3ccccc3C(=O)C(=O)N(C)C)n2)c(OC)cc1N1CCN(C)CC1
patients with partial response (RECIST v1.1 best response; human EGFR T790M NSCLC; oral, 200 mg/day, per-protocol set): 33.3%

CC(C)C[C@@H]1NC(=O)[C@H](CC(C)C)NC(=O)[C@H](Cc2c[nH]c3ccccc23)NC(=O)[C@H](CO)NC(=O)[C@H](Cc2c[nH]c3ccccc23)NC(=O)[C@@H]2CCCN2C(=O)[C@H](CC(C)C)NC(=O)[C@H](Cc2c[nH]cn2)NC(=O)[C@@H]2CCCN2C(=O)[C@H](CC(N)=O)NC(=O)[C@H](C)NC(=O)[C@H](Cc2ccc(O)cc2)NC(=O)[C@H](CS)NC(=O)[C@H](CCCCNC(=O)CN2CCN(CC(=O)O)CCN(CC(=O)O)CCN(CC(=O)O)CC2)NC1=O [lutetium-177 labelled]
tissue uptake (Balb/c mouse, female, 4T1 tumour, kidney; intravenous, 3.7 MBq, 96 h): 0.16 %ID

COc1ccc([C@@H](O)c2cc(-c3ncnc4cc(N5CCOCC5)ccc34)c(F)cc2Cl)nn1
median survival (mouse, orthotopic M15 xenograft; 125 mg/kg, with: radiotherapy): 36 days

CC(C)C[C@H](NC(=O)C[C@H](O)[C@H](CC(C)C)NC(=O)[C@H](Cc1c[nH]cn1)NC(=O)CNC(=O)[C@@H](NC(=O)[C@H](C)NC(=O)[C@H](Cc1c[nH]c2ccccc12)NC(=O)[C@H](CCC(N)=O)NC(=O)[C@@H](Cc1ccccc1)NC(=O)CCNC(=O)CCSc1nnc(NCCC(=O)NCCC(=O)NCCCC[C@H](NC(=O)N[C@@H](CCC(=O)O)C(=O)O)C(=O)O)c2c1CCC1C(CC2)C1COC(=O)NCCNC(=O)CC[C@H](C(=O)O)N1CCN(CC(=O)O)CCN(CC(=O)O)CC1)C(C)C)C(N)=O (stereo partly shown) [gallium-68 labelled]
tissue uptake (athymic NMRI nude mouse, spleen; intravenous, 533 pmol, 2 h): 0.3 %ID/g

c1ccc2c(c1)Nc1ccccc1S2
tumour volume (CT26 tumour-bearing mice; intraperitoneal, 100 mg/kg equivalents daily, day 5): 647 mm³

CCCCCCCCCCCCCC1OC(=O)/C1=C\CCCCC(N)=O (stereo not shown)
PS lipase activity (enzyme activity, inhibitor; membrane proteomes of lymphoblastoid cell lines; 1 µM, 30 min, 37 °C): decreased

C[C@H]1CN(c2n[nH]c3nc(N[C@H]4CC[C@H](NS(=O)(=O)CCC(F)(F)F)CC4)ncc23)CCO1
relative abundance (CHEK1 (Homo sapiens, UniProt O14757); inhibitor, Kinobeads competition profiling; 0.8 µM; reference: vehicle): 1.04

C[C@H]1O[C@@H](O[C@H]2CC[C@@]3(C)[C@@H](CC[C@]4(C)[C@@H]3C=C[C@]35OC[C@@]6(CCC(C)(C)C[C@H]63)[C@@H](O)C[C@]54C)[C@]2(C)CO)[C@H](O)[C@@H](O[C@@H]2O[C@H](CO)[C@@H](O)[C@H](O)[C@H]2O)[C@H]1O
hepatic total cholesterol (mouse, no ethanol, hepatic SIRT1 knockdown, liver; dose not given, high dose): 0.15 mmol/g protein and 0.0669 mmol/g protein and 0.145 mmol/g protein and 0.0795 mmol/g protein and 0.0712 mmol/g protein

O=C(O)CNC(=O)c1cc2ccccc2n1Cc1ccc(C2CC2)c2ccccc12
serum uric acid (mouse, acute hyperuricaemia model, serum; oral, 2 mg/kg, first screening): 436 µM

Cc1cccc(C)c1NC(=O)C1CCCCN1 (stereo not shown)
sensory maximum possible effect (hot plate; Sprague-Dawley rat, male, sciatic nerve; 30 mM): 100%

Cc1cc(-c2nc(C(=O)Nc3cc4oc(N5CCOCC5)nc4nc3N3CC[C@@H](O)C3)co2)ccn1
mean overall survival increase (mouse, B16-F10 melanoma brain metastasis; 100 mg/kg; reference: vehicle): 35%

CCCCC1(CCCC)CN(c2ccccc2)c2cc(SC)c(OCC(=O)N[C@@H](C(=O)NCC(=O)O)c3ccccc3)cc2S(=O)(=O)C1
serum LDL-C (measured: LDL cholesterol; human, serum; 15 mg once daily, day 5): 79.6 mg/dL

Cc1nc(Nc2ccc(CC(=O)O)cc2)nc(Nc2ccc(F)c(C(F)(F)F)c2)c1C
fed blood glucose (C57BL/6J mice, high-fat diet; intraperitoneal, 0.3 mg/kg daily, 60% fat diet 12 weeks, dosed last four; reference: vehicle): decreased

N.N.[Cl][Pt][Cl]
tumour volume (SAS xenograft, KSN/Slc nude mice; dose not given, day 10, group mean): 240 mm3

CC[C@H](C)[C@@H]([C@@H](CC(=O)N1CCC[C@H]1[C@H](OC)[C@@H](C)C(=O)N[C@H](C)[C@@H](O)c1ccccc1)OC)N(C)C(=O)[C@@H](NC(=O)[C@H](C(C)C)N(C)C(=O)OCc1ccc(NC(=O)[C@H](CCCNC(N)=O)NC(=O)[C@@H](NC(=O)c2ccc(Cn3nnc4c3-c3ccccc3N(C(=O)CCC(=O)NCCOCCOCCOCCOCCC(=O)N[C@@H](CCC(=O)NCCCCCC(=O)N[C@@H](CCC(=O)N[C@@H](CCCOP(=O)(O)N[C@@H](CCC(=O)O)C(=O)O)C(=O)O)C(=O)O)C(=O)N[C@H](CCCCNC(=O)CCCc3ccc(I)cc3)C(=O)O)Cc3ccccc3-4)cc2)C(C)C)cc1)C(C)C
volume of distribution (NCr nude mouse, PC3-PiP tumour, plasma; intravenous, 0.8 mg/kg, single dose): 0.106 L/kg

CC[C@H](C)[C@H](NC(=O)[C@H](CC(C)C)NC(=O)[C@H](CCC(N)=O)NC(=O)[C@H](CCSC)NC(=O)[C@H](CC(N)=O)NC(=O)[C@H](Cc1ccccc1)NC(=O)[C@@H](N)CO)C(=O)N[C@@H](CO)C(=O)N[C@@H](CCC(N)=O)C(=O)N[C@H](C(=O)O)C(C)C
Kd (Protein scribble homolog, PDZ3 domain (SCRIB, Homo sapiens, UniProt Q14160); binding, fluorescence polarization; solution; Scribble PDZ3 domain): 39.3 µM

O=C(O)/C=C/C(=O)O.Oc1cccc2[nH]cc(CCNCc3ccccc3)c12
head twitch count (C57BL/6J mice; subcutaneous, 1 mg/kg): 12.7 ± 1.4

[131I-].[Na+]
excellent response (ATA response criteria; human, papillary thyroid cancer with metastases; 3700 MBq): 50.3%

CC(C)[C@@H]1NC(=O)[C@H](Cc2ccccc2)NC(=O)[C@@H]2NC(=O)[C@H](Cc3ccccc3)NC(=O)[C@@H]3CCCN3C(=O)CNC(=O)[C@H](Cc3ccccc3)NC(=O)[C@@H]3CNCCCC[C@@H](C(=O)O)NC(=O)[C@@H]4NC(=O)[C@H](CC(N)=O)NC(=O)CNC(=O)[C@H]([C@@H](O)C(=O)O)NC(=O)[C@H](CSC[C@@H](NC(=O)[C@H](CCC(N)=O)NC(=O)[C@H](CCCCNC(=O)c5ccc(NN)nc5)NC(=O)[C@@H](N)CS[C@H]4C)C(=O)N[C@@H](CS[C@H]2C)C(=O)N3)NC1=O [technetium-99m labelled]
tissue radioactivity ratio (rat ischemia-reperfusion, heart; saline, 24 h reperfusion; reference: infarct over normal myocardium): 14.1 ± 1.78

CC[C@H](C)[C@@H]1NC(=O)[C@@H]2CCCN2C(=O)[C@H](CC(C)C)NC(=O)[C@H](CC(C)C)NC(=O)CNC(=O)[C@@H](NC(=O)[C@@H](NC(=O)[C@H](CC(=O)O)NC(=O)CNC(=O)[C@@H](NC(=O)[C@H](C)NC(=O)CNC(=O)[C@H](CCCCN)NC(=O)[C@H](CC(C)C)NC(=O)[C@H](CC(C)C)NC(=O)[C@H](CCCCN)NC(=O)CNC(=O)[C@@H](NC(=O)[C@@H](N)CC(C)C)C(C)C)C(C)C)C(C)C)CSSC[C@@H](C(=O)O)NC1=O
log2 fold change (RNA-seq, measured: Rell2; mouse, traumatic brain injury model, frontal cortex and hippocampus; dose not given; reference: TBI alone): -0.873

CN1CCN(S(=O)(=O)c2cc([N+](=O)[O-])ccc2N(CCOS(C)(=O)=O)CCOS(C)(=O)=O)CC1
EFS ratio (T/C) (NSG mice, sample CB PDX; intraperitoneal, 25 mg/kg weekly x3; reference: treated over vehicle): > 66.8

CCCCCN1C[C@H](O)[C@@H](O)[C@H](O)[C@@H]1CO
median survival time (Hexb-/- mouse, mixed sex; 300 mg/kg/day): 159 days

COc1cc2c(Oc3ccc4[nH]c(C)cc4c3F)ccnc2cc1OCC1(N)CC1
grade 1 or 2 Hyperthyroidism (paediatric recurrent refractory sarcoma; 8 mg/kg): 0%

Oc1ccc2c3c1O[C@H]1[C@@H](O)CC[C@@]4(O)[C@@H](C2)N(CC2CCC2)CC[C@]314
log2 fold change (Probable G-protein coupled receptor 162 (GPR162, Homo sapiens, UniProt Q16538); β-arrestin recruitment, TANGO luminescence, measured: GPR162; concentration not given; reference: basal luminescence): 0.278

Excerpt of the above:
[131I-].[Na+]
excellent response (ATA response criteria; human, papillary thyroid cancer with metastases; 3700 MBq): 50.3%

CC(C)[C@@H]1NC(=O)[C@H](Cc2ccccc2)NC(=O)[C@@H]2NC(=O)[C@H](Cc3ccccc3)NC(=O)[C@@H]3CCCN3C(=O)CNC(=O)[C@H](Cc3ccccc3)NC(=O)[C@@H]3CNCCCC[C@@H](C(=O)O)NC(=O)[C@@H]4NC(=O)[C@H](CC(N)=O)NC(=O)CNC(=O)[C@H]([C@@H](O)C(=O)O)NC(=O)[C@H](CSC[C@@H](NC(=O)[C@H](CCC(N)=O)NC(=O)[C@H](CCCCNC(=O)c5ccc(NN)nc5)NC(=O)[C@@H](N)CS[C@H]4C)C(=O)N[C@@H](CS[C@H]2C)C(=O)N3)NC1=O [technetium-99m labelled]
tissue radioactivity ratio (rat ischemia-reperfusion, heart; saline, 24 h reperfusion; reference: infarct over normal myocardium): 14.1 ± 1.78

CC[C@H](C)[C@@H]1NC(=O)[C@@H]2CCCN2C(=O)[C@H](CC(C)C)NC(=O)[C@H](CC(C)C)NC(=O)CNC(=O)[C@@H](NC(=O)[C@@H](NC(=O)[C@H](CC(=O)O)NC(=O)CNC(=O)[C@@H](NC(=O)[C@H](C)NC(=O)CNC(=O)[C@H](CCCCN)NC(=O)[C@H](CC(C)C)NC(=O)[C@H](CC(C)C)NC(=O)[C@H](CCCCN)NC(=O)CNC(=O)[C@@H](NC(=O)[C@@H](N)CC(C)C)C(C)C)C(C)C)C(C)C)CSSC[C@@H](C(=O)O)NC1=O
log2 fold change (RNA-seq, measured: Rell2; mouse, traumatic brain injury model, frontal cortex and hippocampus; dose not given; reference: TBI alone): -0.873
